Experimental data pooled from the literature.
Protocols differ between the studies behind these lines.
Organism: Trypanosoma brucei

O=C1CNC2(CCCCCC2)C(=O)N1 — IC50 (parasite growth; pH 7.4, blood stage): > 400 µM
Cc1cnc(CNC(=O)c2c(=O)c3ccc(N4CCCN(C)CC4)nc3n3c2sc2ccccc23)cn1 — downregulated G4-containing genes (RNA-seq; Lister 427 bloodstream form; 2 x EC50, 4 h, overlap, with peaks, G4 ChIP-seq; reference: untreated): 7 genes
CCCCCC(=O)N[C@@H](Cc1c[nH]c2ccccc12)C(=O)N[C@@H](CCCC)C(=O)N[C@@H](CC(C)C)C(=O)[C@@]1(C)CO1 — EC50 (parasite growth, SYBR Green; 72 h): 0.195 µM
C[n+]1cc(NC(=O)c2ccc3ccc4ccc(C(=O)Nc5cc6ccccc6[n+](C)c5)nc4c3n2)cc2ccccc21 — unchanged G4-containing genes (RNA-seq; Lister 427 bloodstream form; 2 × EC50, 4 h): 703 genes
C[C@@H]1NC2(C(=O)N(CC(=O)O)C1=O)C1CC3CC(C1)CC2C3 (stereo partly drawn) — IC50 (parasite growth; pH 7.4, blood stage): 203 µM
O=C(N/N=C/c1ccc([N+](=O)[O-])s1)c1ccccc1I — EC50 (parasite growth, resazurin; 72 h): 1.47 µM
c1cc(-c2ccc3ncnc(Nc4ncco4)c3c2)cc(N2CCOCC2)c1 — GI50 (parasite growth, SYBR Green; 48 h): 0.42 µM
CCCCCC(=O)N[C@@H](Cc1ccccc1)C(=O)N[C@@H](CCCC)C(=O)N[C@@H](CC(C)C)C(=O)[C@@]1(C)CO1 — EC50 (parasite growth, SYBR Green; 72 h): 1.04 µM
Cc1cccc(-c2ccc3nc(NC(=O)C4CCCCC4)nn3c2)c1 — EC50 (parasite growth): 6.6 µM
CCCCCC(=O)N[C@@H](Cc1ccc(NC(=O)OC(C)(C)C)cc1)C(=O)N[C@@H](CCCC)C(=O)N[C@@H](Cc1ccccc1)C(=O)[C@@]1(C)CO1 — EC50 (parasite growth, SYBR Green; 72 h): 2.71 µM
CN(C)CCNC(=O)c1cccn2c(=O)c3cc4ccccc4cc3nc12 — unchanged genes (RNA-seq; Lister 427 bloodstream form; 2 × EC50, 4 h; reference: untreated): 16900 genes
CCCCCC(=O)N[C@@H](Cc1ccccc1)C(=O)N[C@@H](CCCC)C(=O)N[C@@H](Cc1ccccc1)C(=O)[C@@]1(C)CO1 — EC50 (parasite growth, SYBR Green; 72 h): > 4 µM
O=C(O)CN1C(=O)[C@@H](Cc2ccccc2)NC2(C1=O)C1CC3CC(C1)CC2C3 (stereo partly drawn) — IC50 (parasite growth; pH 7.4, blood stage): 171 µM
CCCCCC(=O)NC(CC(=O)N(CC)CC)C(=O)NC(Cc1ccc(F)cc1)C(=O)NC(Cc1ccc(F)cc1F)C(=O)C1(C)CO1 (stereo not drawn) — EC50 (parasite growth, SYBR Green; GAMBIENSE): 0.22 µM
O=C1NC(=O)C2(N[C@@H]1Cc1ccccc1)C1CC3CC(C1)CC2C3 (stereo partly drawn) — IC90 (parasite growth; pH 7.4, blood stage): 57.2 µM

A few entries again:
O=C1CNC2(CCCCCC2)C(=O)N1 — IC50 (parasite growth; pH 7.4, blood stage): > 400 µM
O=C1NC(=O)C2(N[C@@H]1Cc1ccccc1)C1CC3CC(C1)CC2C3 (stereo partly drawn) — IC90 (parasite growth; pH 7.4, blood stage): 57.2 µM
